Measurements collected from several papers.
Protocols differ between the studies behind these lines. ± marks the error that the study gave. In brackets after ≈: the same amount, converted by molar mass.
TDP1: Tyrosyl-DNA phosphodiesterase 1 (TDP1, Homo sapiens, UniProt Q9NUW8)
UniProt Q9NUW8, sequence (whole entry, looked up): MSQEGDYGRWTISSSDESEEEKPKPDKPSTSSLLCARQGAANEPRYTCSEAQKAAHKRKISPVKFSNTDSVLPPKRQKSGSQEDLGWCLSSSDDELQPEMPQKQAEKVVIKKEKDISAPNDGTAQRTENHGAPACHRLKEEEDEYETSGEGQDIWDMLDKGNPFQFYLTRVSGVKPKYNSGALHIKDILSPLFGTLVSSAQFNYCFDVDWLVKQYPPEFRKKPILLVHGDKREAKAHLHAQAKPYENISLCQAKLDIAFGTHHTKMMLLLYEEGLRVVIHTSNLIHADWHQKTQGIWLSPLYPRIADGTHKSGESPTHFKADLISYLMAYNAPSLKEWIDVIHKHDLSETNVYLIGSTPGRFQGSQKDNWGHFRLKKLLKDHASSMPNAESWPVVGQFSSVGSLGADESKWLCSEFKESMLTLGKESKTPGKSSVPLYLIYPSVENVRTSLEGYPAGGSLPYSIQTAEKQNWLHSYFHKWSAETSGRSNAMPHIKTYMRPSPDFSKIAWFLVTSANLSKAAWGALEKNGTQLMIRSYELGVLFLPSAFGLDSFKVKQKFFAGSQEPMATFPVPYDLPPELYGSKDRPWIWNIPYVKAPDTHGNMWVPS

Cc1ncsc1-c1ccc(C(C)NC(=O)C2CC(O)CN2C(=O)C(NC(=O)CCCCCCCCCCN2CCCC(Nc3ncc(Cl)c(Nc4ccccc4S(=O)(=O)C(C)C)n3)C2)C(C)(C)C)cc1 (stereo not drawn)
log2 fold change (22Rv1; RNA-seq, measured: PPP1R13L mRNA; concentration not given; reference: DMSO): -1.09

CC(C)(C)NCC(SS(=O)(=O)O)c1ccccc1 (stereo not drawn)
female worm burden reduction (Schistosoma mansoni; infected mice; 100 mg/kg single, day 42, perfusion day 56; reference: vehicle): 83%

COCCOCCOCCNC(=O)Cc1cc(CC(=O)N[C@H]2C[C@H]3C(=O)Nc4cc(OCCOCCOCCOC)cc(n4)C(=O)N4CCC[C@H]4C(=O)Nc4cc(OCCOCCOCCOC)cc(n4)C(=O)N4CCC[C@H]4C(=O)Nc4cc(OCCOCCOCCOC)cc(n4)C(=O)N3C2)cc(CC(=O)N[C@H]2C[C@H]3C(=O)Nc4cc(OCCOCCOCCOC)cc(n4)C(=O)N4CCC[C@H]4C(=O)Nc4cc(OCCOCCOCCOC)cc(n4)C(=O)N4CCC[C@H]4C(=O)Nc4cc(OCCOCCOCCOC)cc(n4)C(=O)N3C2)c1
TΔS (anion binding, ITC; water; 298 K, with: sodium bromide): 22 ± 0.1 kJ mol^–1

COCC1CN(C2CCN(c3cc(OC)c(Nc4ncc(Br)c(Nc5ccc6c(c5P(C)(C)=O)OCCO6)n4)cc3C)CC2)C1
progressive disease (RECIST 1.1; advanced EGFR-mutant NSCLC patients; 60 mg once daily): 100%

Nc1ncc(-c2cc(-c3cnn(CC(F)(F)F)c3)ncc2F)nc1C(=O)NC1CNCC(F)C1 (stereo not drawn)
remaining binding (MST4; KINOMEscan; 1 µM; reference: DMSO control): 42%

c1ccc(-c2n[nH]cc2-c2ccnc3ccccc23)nc1
log2 fold change (IKS1 (Candida albicans); kinase binding, MIB/MS competition; Candida albicans lysate; 1 µM; reference: DMSO): -0.1

CNS(=O)(=O)Nc1nccc(Cc2c(C)c3ccc(Oc4ncccc4F)cc3oc2=O)c1F
IC50 (RKN; cell viability; 7 days): 177 nM

O=C(O)c1ccc(Nc2c(-c3ccc(CON=Cc4cc5cccnc5s4)cc3)nc3cc(-c4ccccc4)ccn23)cc1
inhibition (TDP1; enzyme activity, inhibitor; 100 µM, unpurified compound): 85.6%

C/C=C(/C)C(=O)O[C@@H]1C=C(C)CC[C@]2(O)[C@@H](C(C)C)CC(=O)[C@]12C
inhibition (Helicobacter pylori; microbial growth, broth dilution; 0.48 µg/mL): 0%

O=C(O)c1ccc(Nc2c(-c3ccc(CON=Cc4cccc5cccc(C(=O)O)c45)cc3)nc3cc(-c4ccccc4)ccn23)cc1
inhibition (TDP1; enzyme activity, inhibitor; 100 µM, unpurified compound): 92.8%

CCN(CC)CC(=O)Nc1cccc(-n2cc(-c3ccc4ccc(-c5cn(-c6cccc(NC(=O)CN(CC)CC)c6)nn5)cc4c3)nn2)c1
fold regulation (RCC4; PCR angiogenesis array, measured: NOTCH4; 5 x IC50, 2 h, normoxia; reference: untreated): 1.72

Cn1ncc2cc(-c3cncc(Cl)c3N3CCC4(CCNC4=O)CC3)ccc21
log2 fold change (LS174T; gene expression, microarray, measured: NCOA5 mRNA; concentration not given, 4 h; reference: untreated cells): -1.11

C=C(NC(=O)c1csc(-c2nc3c(cc2O)-c2nc(cs2)C(=O)NC(C(C)O)C(=O)NC(=C(C)OC)c2nc(cs2)C(=O)NC2c4nc(cs4)C(=O)NC(COC(=O)c4c5c6c(cccc6n4O)COC(=O)C(OC4CC(C)(O)C(N(C)C)C(C)O4)C2OC5)c2nc-3cs2)n1)C(N)=O (stereo not drawn)
MIC50 (Streptococcus pneumoniae; penicillin-resistant, 10 isolates; serum 50%): 7.8 ng/mL (≈ 5.43 nM)

COC1CN([C@H]2CC[C@H]([C@@]3(C)Oc4c(Cl)cc(C(=O)NCc5c(SC)cc(C)[nH]c5=O)c(C)c4O3)CC2)C1
log2 fold change (RNA-seq, measured: RTN1; human, whole blood; dose not given, 24 h; reference: pretreatment baseline): 1.8

CN1CCCNC(=O)c2cccc(c2)C(=O)NCCCN(C)CCCNc2cccc3c2C(=O)c2cccc(c2C3=O)NCCC1
log2 fold change (SAS; RNA-Seq, measured: RSRC2 mRNA; 1 µM, 6 h; reference: untreated cells): 0.476

C=CC(=O)Nc1cccc(Cn2ncc3cnc(Nc4cnn(CCOC)c4)nc32)c1
percent of control (EPHA5 human; binding, KINOMEscan; 100 nM; lower = stronger binding): 80%

C=CC(=O)N1[C@H](c2ccc3c(c2)OCO3)c2[nH]c3ccccc3c2C[C@@H]1C(=O)N1CCN(C)CC1
relative enrichment (human cyclin E1 N112C-3xFLAG:CDK2; co-IP with TMT proteomics, measured: cyclin E1; concentration not given; reference: wild type DMSO): 100%

COc1cc(O)ccc1CCC(c1ccc(O)cc1)c1cc2c(c(C)c1O)OC(c1ccc(O)cc1)CC2 (mixture of isomers)
12-HETE level (human blood; 10 µM, with: A23187): 7540 ± 2540 pg/mL
